Assay results from different studies.
Protocols differ between the studies behind these lines. ± marks the error that the study gave.

Compound = O=C(O)CCn1c(=O)oc2cc(Cl)c(Cl)cc21; system = human liver microsomes; intrinsic clearance = < 0.5 mL/min/g
Compound = Cc1cnc(N)c(S(=O)(=O)N(C)CC(=O)Nc2ccc(N3CCN(C)CC3)c(Cl)c2)c1; system = human liver microsomes; intrinsic clearance = 15 µL/min/mg
Compound = CCc1ccc([C@@H]2C[C@H](C(F)(F)F)n3ncc(C(=O)NCc4ccc(OC)cc4)c3N2)cc1; system = mouse liver microsomes; intrinsic clearance = 1.9 mL/min/g
Compound = COc1ccc(C2(C(=O)Nc3ccc(C)c(-c4cccc(C(=O)O)c4)c3)CC2)cc1; system = human liver microsomes; intrinsic clearance = 36.1 mL/min/kg
Compound = O=C(Cc1ccc(Cl)c(Cl)c1)N(Cc1ccccc1)[C@@H]1CCCC[C@H]1N1CCCC1; system = mouse liver microsomes; intrinsic clearance = 1.1 mL/min/g
Compound = COc1ccc2nc(C)cc(OCC(=O)Nc3ccccc3OC)c2c1; system = mouse liver microsomes; intrinsic clearance = > 30 mL/min/g
Compound = COc1cc(NC(=O)CN(C)S(=O)(=O)c2cc(C)cnc2N)ccn1; system = human liver microsomes; intrinsic clearance = -14 µL/min/mg
Compound = NC1CCN(C(=O)OC2CCCC3(C2)OOC2(O3)C3CC4CC(C3)CC2C4)CC1 (stereo not shown); system = mouse liver microsomes; intrinsic clearance = 155 µL/min/mg
Compound = Cc1ccc2nc(C(F)(F)F)c(C(=O)NCc3cccc(Cl)c3)n2c1; system = human liver microsomes; intrinsic clearance = > 30 mL/min/g
Compound = NC1CC1c1ccc(NC(=O)c2cccc(NC(=O)OCc3ccccc3)c2)cc1 (stereo not shown); system = mouse liver microsomes; setting = 1 µM; intrinsic clearance = 4.3 ± 0.7 µL/min/mg protein
Compound = Cc1ccc(F)c(C(=O)C=C(O)C(=O)OCc2ccccc2)c1Cl; system = mouse liver microsomes; setting = 0.5 µM, 30 min; intrinsic clearance = > 30 mL/min/g
Compound = Cc1ccc2nc(C)c(C(=O)NCc3ccc(C(F)(F)F)cc3)n2c1; system = rat liver microsomes; intrinsic clearance = 48 mL/min/g protein
Compound = c1cc2c(s1)CCOC21CCN(Cc2ccc3c(c2)OCCO3)CC1; system = mouse liver microsomes; intrinsic clearance = 34.9 mL/min/g
Compound = CN(C(=O)Cc1ccc(Cl)c(Cl)c1)C(CN1CCCC1)c1ccccc1 (stereo in doubt); system = mouse liver microsomes; intrinsic clearance = 6.8 mL/min/g
Compound = Cc1cnc(N)c(S(=O)(=O)N(C)CC(=O)Nc2ccn(C)c(=O)c2)c1; system = human liver microsomes; intrinsic clearance = 13 µL/min/mg
Compound = COc1ccc(C2(c3cn(-c4ccc(C)c(-c5cccc(C(=O)O)c5)c4)nn3)CC2)cc1; system = human liver microsomes; intrinsic clearance = 23.2 mL/min/kg
Compound = COc1ccc(NC(=O)CN(C)S(=O)(=O)c2cc(C)cnc2N)cc1Cl; system = human liver microsomes; intrinsic clearance = 115 µL/min/mg
Compound = Cc1cccc(-c2nc(Nc3ccncn3)c3sccc3n2)n1; system = mouse liver microsomes; intrinsic clearance = 19.5 mL/min/g
Compound = CN1CCN([C@@H]2CCCC[C@H]2N(C)C(=O)Cc2ccc(Cl)c(Cl)c2)CC1; system = human liver microsomes; intrinsic clearance = 3.4 mL/min/g
Compound = COc1ccc2nc(C)cc(OCC(=O)Nc3cc(C)cc(C)c3)c2c1; system = human liver microsomes; intrinsic clearance = 4.3 mL/min/g
Compound = O=C(OCc1ccccc1)C(O)=CC(=O)c1ccccc1Br; system = mouse liver microsomes; setting = 0.5 µM, 30 min; intrinsic clearance = 15.3 ± 6.1 mL/min/g
Compound = Cc1cnc(N)c(S(=O)(=O)N(C)CC(=O)Nc2ccc(C#N)c(Cl)c2)c1; system = human liver microsomes; intrinsic clearance = 113 µL/min/mg
Compound = Cc1ccc2nc(C)c(C(=O)NCc3cccs3)n2c1; system = mouse liver microsomes; intrinsic clearance = > 30 mL/min/g
Compound = COc1ccc(NC(=O)CN(C)S(=O)(=O)c2cc(C)cnc2N)cn1; system = human liver microsomes; intrinsic clearance = 6 µL/min/mg
Compound = Cc1cccc(-c2nc(Nc3ccncn3)c3c(C)csc3n2)n1; system = human liver microsomes; intrinsic clearance = 7.2 mL/min/g
